{"data": "Published values from different studies", "note": "Compare with care: the assays were run in different laboratories. ± marks the error that the study gave."}
{"Compound": "O=c1c(O)c(-c2ccc(O)cc2)oc2cc(O[C@@H]3O[C@H](CO)[C@@H](O)[C@H](O)[C@H]3O)cc(O)c12", "tested on": "Streptococcus mutans", "system": "ATCC 700610", "quantity": "MIC", "value": "100 µg/mL"}
{"Compound": "CC(=O)ON=C1C=CC(=C(C#N)c2ccccc2)C=C1", "tested on": "Candida", "system": "clinical isolates", "setting": "range for 70 of 100 strains", "quantity": "MIC", "value": "16 to 128 µg/mL"}
{"Compound": "O=C(NCC1CCOCC1)c1ccc(C2CCCCC2)cc1", "assay": "hepatocyte stability", "system": "cryopreserved human hepatocytes", "setting": "1 µM", "quantity": "hepatic clearance", "value": "19 mL/min/kg"}
{"Compound": "Cn1cc(-c2ccc(-c3cncc(Cl)c3N3CCC4(CCNC4=O)CC3)cc2)cn1", "tested on": "COLO 205", "assay": "gene expression, microarray, item: PLK4 (STK18) mRNA", "setting": "concentration not given, 2 h", "scale": "reference: untreated cells", "quantity": "log2 fold change", "value": -1.74}
{"Compound": "N=C(N)c1ccc(OCc2cc(COc3ccc(C(=N)N)cc3)cc(-c3ccccc3)c2)cc1", "tested on": "Escherichia coli", "system": "mcr-2 polymyxin-resistant", "setting": "20 h, compound alone", "quantity": "MIC", "value": "100 µg/mL"}
{"Compound": "CC(C)C[C@H](NC(=O)C[C@H](O)[C@H](CC(C)C)NC(=O)[C@H](Cc1c[nH]cn1)NC(=O)CNC(=O)[C@@H](NC(=O)[C@H](C)NC(=O)[C@H](Cc1c[nH]c2ccccc12)NC(=O)[C@H](CCC(N)=O)NC(=O)[C@@H](Cc1ccccc1)NC(=O)COCCOCCNC(=O)CCC(C(=O)O)N1CCN(CC(=O)O)CCN(CC(=O)O)CCN(CC(=O)O)CC1)C(C)C)C(N)=O (stereo partly shown) [lutetium-177 labelled]", "system": "BALB/c nu/nu mice, stomach", "setting": "intravenous, 250 pmol, 1 h, with: PA 300 µg", "quantity": "tissue uptake", "value": "1.2 ± 0.6 %ID/g"}
{"Compound": "CC(=O)N1CCN(c2ccc(OCC3COC(Cn4ccnc4)(c4ccc(Cl)cc4Cl)O3)cc2)CC1 (stereo not shown)", "tested on": "Candida", "setting": "twelve fungal strains", "quantity": "MIC", "value": "4.76 µM"}
{"Compound": "N#Cc1cccc(Nc2ncc(-c3ccccc3)o2)c1", "tested on": "Trypanosoma brucei", "setting": "unit not given", "scale": "reference: pEC50 T. brucei minus pTC50 HepG2", "quantity": "selectivity", "value": 1.1}
{"Compound": "N#CCC(=O)Nc1ccc(C2CCCCC2)cc1", "assay": "hepatocyte stability", "system": "cryopreserved human hepatocytes", "setting": "1 µM", "quantity": "hepatic clearance", "value": "19 mL/min/kg"}
{"Compound": "CC1(C)SC2C(NC(=O)C(NC(=O)C3=C(O)C(c4ccccc4)NC3=O)c3ccccc3)C(=O)N2C1C(=O)O (stereo not shown)", "tested on": "Escherichia coli", "assay": "broth microdilution", "system": "ATCC 25922 wild type", "setting": "with: clavulanic acid 6 µg/mL", "quantity": "MIC", "value": "12.5 µg/mL"}
{"Compound": "CC1(C)S[C@@H]2[C@H](NC(=O)[C@H](N)c3ccccc3)C(=O)N2[C@H]1C(=O)O", "tested on": "Pseudomonas aeruginosa", "assay": "broth microdilution", "system": "clinical isolate RKI-No 483/15-1", "quantity": "MIC", "value": "> 16 µg/mL"}
{"Compound": "CCCCCCCCCC(=O)N[C@@H](Cc1c[nH]c2ccccc12)C(=O)N[C@H](CC(N)=O)C(=O)N[C@@H](CC(=O)O)C(=O)N[C@@H]1C(=O)NCC(=O)N[C@@H](CCCN)C(=O)N[C@@H](CC(=O)O)C(=O)N[C@H](C)C(=O)N[C@@H](CC(=O)O)C(=O)NCC(=O)N[C@H](CO)C(=O)N[C@@H]([C@H](C)CC(=O)O)C(=O)N[C@@H](CC(=O)c2ccccc2N)C(=O)O[C@@H]1C", "tested on": "Staphylococcus aureus", "system": "SH1000", "setting": "with: menaquinone-4, molar ratio 1", "quantity": "MIC", "value": "1 µg/mL"}
{"Compound": "CC(C)C[C@@H]1NC(=O)[C@@H](Cc2ccccc2)NC(=O)[C@H](CCN)NC(=O)[C@@H](NC(=O)[C@H](CCN)NC(=O)[C@@H](N)[C@@H](C)O)CCNC(=O)[C@H]([C@@H](C)O)NC(=O)[C@H](CCN)NC(=O)[C@H](CCN)NC1=O", "tested on": "Escherichia coli", "system": "W3110", "quantity": "MIC", "value": "> 200 µg/mL"}
{"Compound": "CNC(C)C1CCC(N)C(OC2C(N)CC(N)C(OC3OCC(C)(O)C(NC)C3O)C2O)O1 (stereo not shown)", "tested on": "Salmonella enterica serovar Typhimurium", "assay": "broth microdilution", "system": "clinical isolate RKI-No 437/14", "quantity": "MIC", "value": "1 µg/mL"}
{"Compound": "N=C(N)c1ccc(OCc2cccc(COc3ccc(C(=N)N)cc3)c2)cc1", "tested on": "Escherichia coli", "system": "mcr-1 polymyxin-resistant", "setting": "20 h, compound alone", "quantity": "MIC", "value": "200 µg/mL"}
{"Compound": "CN[C@H](CC(C)C)C(=O)N[C@H]1C(=O)N[C@@H](CC(N)=O)C(=O)N[C@H]2C(=O)N[C@H]3C(=O)N[C@H](C(=O)N[C@H](C(=O)O)c4cc(O)cc(O)c4-c4cc3ccc4O)[C@H](O)c3ccc(c(Cl)c3)Oc3cc2cc(c3O[C@@H]2O[C@H](CO)[C@@H](O)[C@H](O)[C@H]2O[C@H]2C[C@](C)(N)[C@H](O)[C@H](C)O2)Oc2ccc(cc2Cl)[C@H]1O", "tested on": "Streptococcus pyogenes", "system": "erythromycin-sensitive, 21 strains", "quantity": "MIC", "value": "0.41 µg/mL"}
{"note": "Some of these lines once more:"}
{"Compound": "CC(=O)N1CCN(c2ccc(OCC3COC(Cn4ccnc4)(c4ccc(Cl)cc4Cl)O3)cc2)CC1 (stereo not shown)", "tested on": "Candida", "setting": "twelve fungal strains", "quantity": "MIC", "value": "4.76 µM"}
{"Compound": "CC1(C)S[C@@H]2[C@H](NC(=O)[C@H](N)c3ccccc3)C(=O)N2[C@H]1C(=O)O", "tested on": "Pseudomonas aeruginosa", "assay": "broth microdilution", "system": "clinical isolate RKI-No 483/15-1", "quantity": "MIC", "value": "> 16 µg/mL"}
{"Compound": "CC(C)C[C@@H]1NC(=O)[C@@H](Cc2ccccc2)NC(=O)[C@H](CCN)NC(=O)[C@@H](NC(=O)[C@H](CCN)NC(=O)[C@@H](N)[C@@H](C)O)CCNC(=O)[C@H]([C@@H](C)O)NC(=O)[C@H](CCN)NC(=O)[C@H](CCN)NC1=O", "tested on": "Escherichia coli", "system": "W3110", "quantity": "MIC", "value": "> 200 µg/mL"}
